Assay results from different studies.
Each numbered part is a random draw from the data of one study; scales do not carry over between parts.

Block 1 — method: aptamer microarray, sandwich; form: DNA with 2'F-ANA; matrix: in vitro; tested at: 200 nM; with: Cy3 exosite-II aptamer, 400 nM; reading: higher = stronger binding; sequence: GGTTGGTGTGGTTGG
Target: Prothrombin, mature alpha-thrombin (F2, Homo sapiens, UniProt P00734)
Setting: whole 15-mer aptamer, many near background
For `2'F-ANA at 1 8 9 10 11 13 15`, “mean fluorescence intensity” read 56.8 a.u.
Under “mean fluorescence intensity”, `2'F-ANA at 1 3 4 5 6 10 11 13 14 15` is recorded as 50.7 a.u.
For `2'F-ANA at 1 2 4 6 7 9 15`, “mean fluorescence intensity” read 118 a.u.
For `2'F-ANA at 2 5 7 9 10 11 12 14 15`, “mean fluorescence intensity” read 47.3 a.u.
Under “mean fluorescence intensity”, `2'F-ANA at 1 4 6 10 11 12 15` is recorded as 54.8 a.u.
Under “mean fluorescence intensity”, `2'F-ANA at 2 5 6 7 8 12` is recorded as 167 a.u.

Block 2 — method: protein-binding microarray; form: double-stranded DNA, one strand shown; matrix: in vitro; tested at: 2200 nM top; setting: 60-bp whole probe; with: salmon DNA 0.4 mg/ml; reference: random background probes; reading: higher = stronger binding; shared flanks, not repeated: GCCTAGCAC … GTCTTGATTCGCTTGACGCTGCTG
Target: Interferon regulatory factor 7, full length, phosphomimetic (IRF7, Homo sapiens, UniProt Q92985, residues 1-503, S471D/S472D/S475D/S476D/S477D/S483D/S484D/S487D)
Target sequence (chain): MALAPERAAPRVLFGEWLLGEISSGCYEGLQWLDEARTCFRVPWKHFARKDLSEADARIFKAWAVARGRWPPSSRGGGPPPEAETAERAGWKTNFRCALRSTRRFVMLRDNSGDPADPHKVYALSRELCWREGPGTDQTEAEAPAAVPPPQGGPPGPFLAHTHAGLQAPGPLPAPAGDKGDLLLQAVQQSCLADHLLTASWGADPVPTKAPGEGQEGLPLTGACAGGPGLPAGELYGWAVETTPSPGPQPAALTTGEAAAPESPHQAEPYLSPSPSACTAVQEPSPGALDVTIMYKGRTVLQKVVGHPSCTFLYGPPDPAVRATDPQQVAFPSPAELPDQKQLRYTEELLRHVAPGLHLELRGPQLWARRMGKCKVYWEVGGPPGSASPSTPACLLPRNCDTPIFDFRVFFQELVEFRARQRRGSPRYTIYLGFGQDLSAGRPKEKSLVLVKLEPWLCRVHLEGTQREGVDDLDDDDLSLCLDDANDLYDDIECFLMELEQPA
Under “fitted relative affinity”, `TTACGTCTCCTTATCCTTTAGTGCTAG` is recorded as 2.39 z-score.
Under “fitted relative affinity”, `TTAGGTATCGGACTAGGTTAGTGCTAG` is recorded as 0.0809 z-score.
Under “fitted relative affinity”, `GTAGGTTTCGGTCTCGGTTAGTGCTAG` is recorded as 6.41 z-score.
For `GCCGGTTCCCTTTTCCTGACGTGCTAG`, “fitted relative affinity” read 3.09 z-score.
`TCACCTCTCATTCCAATACTGTGCTAG`: “fitted relative affinity” 2.45 z-score.
`TTAGGTTTTCTTTTCCTTTAGTGCTAG`: “fitted relative affinity” 3.62 z-score.
`TTAGATATCGAGTTTCGATTAGTGCTA` — result for “fitted relative affinity”: 3.98 z-score.
`GACGGTATCGGTATCGCGACGTGCTAG`: “fitted relative affinity” 0.562 z-score.
Under “fitted relative affinity”, `TCAGCTTCCTCTCTGCCACTGTGCTAG` is recorded as 1.55 z-score.

Block 3 — method: RNAcompete; form: RNA; matrix: in vitro; tested at: 20 nM; setting: 7-mer, probes averaged, single round; reference: mean of 7-mers; reading: higher = stronger binding
Target: PABPC1L2, full length, GST fusion (mouse, UniProt A0ABA7IW68)
Construct (chain): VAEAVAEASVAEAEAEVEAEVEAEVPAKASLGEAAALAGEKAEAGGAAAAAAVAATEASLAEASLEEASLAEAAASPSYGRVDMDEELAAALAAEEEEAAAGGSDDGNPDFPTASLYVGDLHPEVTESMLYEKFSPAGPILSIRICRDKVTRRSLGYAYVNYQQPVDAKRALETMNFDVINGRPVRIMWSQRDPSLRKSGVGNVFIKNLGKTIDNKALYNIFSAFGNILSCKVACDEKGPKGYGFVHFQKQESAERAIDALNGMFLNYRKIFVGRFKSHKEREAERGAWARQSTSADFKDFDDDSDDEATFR
The 7-mer Z-score of `UGAUCAA` is reported as 0.0986.
`AUGAACU` gave a 7-mer Z-score of -0.0989.
For `CUGAAAG`, the 7-mer Z-score was -0.0246.
`GAUGUAG` has a 7-mer Z-score of -0.155.
The 7-mer Z-score of `GCCGGGA` is reported as -0.168.
`ACUGAGG` has a 7-mer Z-score of 0.102.
The 7-mer Z-score of `ACGGUUG` is reported as -0.124.
The 7-mer Z-score of `ACAGGUG` is reported as 0.0714.
The 7-mer Z-score of `UCAACAU` is reported as -0.224.

Mixed results
The fold induction of `PhoQ, residues 284 288 289 292 302 303 SSLVEF` is reported as 13 (PhoP, residues 12 14 15 18 19 NMSFL (Escherichia coli, UniProt P23836); Sort-seq, refers to: YFP reporter; E. coli; PhoQ-PhoP variant library, with: 10 µM Mg2+; reference: high Mg2+ state, higher = stronger signaling).
